Assay results of several laboratories.
Organism: Staphylococcus aureus

Compound | assay | system | conditions | MIC
CC[C@H](C)[C@H](NC(=O)[C@H](Cc1ccccc1)NC(=O)[C@@H](NC(=O)[C@H](Cc1ccccc1)NC(=O)[C@@H]1CCCN1C(=O)[C@@H](NC(=O)[C@H](C)N)[C@@H](C)CC)[C@@H](C)CC)C(=O)N[C@@H](Cc1c[nH]c2ccccc12)C(=O)N[C@@H](CCCNC(=N)N)C(=O)N[C@@H](CC(C)C)C(=O)N[C@@H](CC(C)C)C(=O)N[C@@H](CCCNC(=N)N)C(=O)N[C@@H](CCCCN)C(=O)NCC(N)=O | broth microdilution | ATCC 6051 | 18 h, 37 °C | 1.88 µM
CC[C@H](C)[C@H](N)C(=O)N[C@@H](CC(C)C)C(=O)NCC(=O)N[C@@H](CCC(=O)O)C(=O)N[C@H](C(=O)N[C@@H](Cc1c[nH]c2ccccc12)C(=O)N[C@@H](CCCCN)C(=O)NCC(=O)N[C@H](C(=O)N[C@@H](CCCCN)C(=O)N[C@@H](CC(=O)O)C(=O)N[C@H](C(=O)N[C@@H](CC(C)C)C(N)=O)[C@@H](C)CC)[C@@H](C)CC)[C@@H](C)CC | broth microdilution | ATCC 25923 | concentration not given, added: BSA | > 100 µM
CC[n+]1c(-c2ccccc2)c2cc(N)ccc2c2ccc(N)cc21 | – | 1199B (NorA overexpressing) | – | 16 µM
CC[C@H](C)[C@H](NC(=O)[C@H](CC(C)C)NC(=O)[C@@H](NC(=O)[C@@H](NC(=O)[C@@H](NC(=O)[C@H](CCCNC(=N)N)NC(=O)[C@H](CCCNC(=N)N)NC(=O)[C@H](CCCNC(=N)N)NC(=O)[C@@H](N)CCCNC(=N)N)C(C)C)[C@@H](C)CC)[C@@H](C)CC)C(=O)N[C@@H](CO)C(=O)N[C@@H](CC(C)C)C(=O)N[C@@H](CCCNC(=N)N)C(=O)N[C@@H](CCCNC(=N)N)C(=O)N[C@@H](CCCNC(=N)N)C(=O)N[C@@H](CCCNC(=N)N)C(=O)N[C@@H](Cc1ccccc1)C(=O)N[C@@H](CO)C(=O)N[C@@H](C)C(=O)N[C@@H](Cc1ccc(O)cc1)C(N)=O | broth microdilution | ATCC 29213 | highest value reported | 4 µM
CN[C@H](CC(C)C)C(=O)N[C@H]1C(=O)N[C@@H](CC(N)=O)C(=O)N[C@H]2C(=O)N[C@H]3C(=O)N[C@H](C(=O)N[C@H](C(=O)O)c4cc(O)cc(O)c4-c4cc3ccc4O)[C@H](O)c3ccc(c(Cl)c3)Oc3cc2cc(c3O[C@@H]2O[C@H](CO)[C@@H](O)[C@H](O)[C@H]2O[C@H]2C[C@](C)(N)[C@H](O)[C@H](C)O2)Oc2ccc(cc2Cl)[C@H]1O | broth microdilution | MW2 (MRSA), cation-adjusted Mueller-Hinton broth | – | 2 µg/mL
CC[C@H](C)[C@H](NC(=O)[C@H](CC(C)C)NC(=O)[C@H](CCCNC(=N)N)NC(=O)[C@@H](N)CCCNC(=N)N)C(=O)N[C@@H](CCCNC(=N)N)C(=O)N[C@@H](CCCCN)C(=O)N[C@@H](CC(C)C)C(=O)N[C@@H](CCCCN)C(=O)NCC(=O)N1CCC[C@H]1C(=O)N[C@@H](CCCCN)C(=O)N[C@H](C(=O)N[C@@H](Cc1ccc(O)cc1)C(=O)N[C@@H](CC(C)C)C(=O)N[C@@H](Cc1ccc(O)cc1)C(=O)N[C@@H](Cc1ccccc1)C(=O)N[C@@H](CCCCN)C(=O)N[C@@H](CC(C)C)C(=O)N[C@@H](CCC(N)=O)C(=O)N[C@@H](CC(C)C)C(=O)N[C@@H](CC(C)C)C(=O)N[C@@H](CCCCN)C(=O)N[C@@H](CCCCN)C(N)=O)[C@@H](C)CC | – | CCARM 3089, methicillin-resistant, Mueller-Hinton broth | 24 h | 16 µM
CCOc1ccc2ccccc2c1C(=O)N[C@@H]1C(=O)N2[C@@H]1SC(C)(C)[C@@H]2C(=O)O | – | mecA−, antibiotic-susceptible | – | 1 µg/mL
CC[C@H](C)[C@H](NC(=O)[C@H](CC(C)C)NC(=O)[C@H](CCCNC(=N)N)NC(=O)[C@@H](N)CCCNC(=N)N)C(=O)N[C@@H](CCCNC(=N)N)C(=O)N[C@@H](CCCCN)C(=O)N[C@@H](CC(C)C)C(=O)N[C@@H](CCCCN)C(=O)NCC(=O)N[C@@H](CC(C)C)C(=O)N[C@@H](CCCCN)C(=O)N[C@@H](CCCCN)C(=O)N[C@@H](Cc1ccc(O)cc1)C(=O)N[C@@H](CC(C)C)C(=O)N[C@@H](Cc1ccc(O)cc1)C(=O)N[C@@H](Cc1ccccc1)C(=O)N[C@@H](CCCCN)C(=O)N[C@@H](CC(C)C)C(=O)N[C@@H](CCC(N)=O)C(=O)N[C@@H](CC(C)C)C(=O)N[C@@H](CC(C)C)C(=O)N[C@@H](CCCCN)C(=O)N[C@@H](CCCCN)C(N)=O | broth microdilution | KCTC 1621, Mueller-Hinton broth | added: NH4Cl 6 µM | 16 µM
CN[C@H](CC(C)C)C(=O)N[C@H]1C(=O)N[C@@H](CC(N)=O)C(=O)N[C@H]2C(=O)N[C@H]3C(=O)N[C@H](C(=O)N[C@H](C(=O)O)c4cc(O)cc(O)c4-c4cc3ccc4O)[C@H](O)c3ccc(c(Cl)c3)Oc3cc2cc(c3O[C@@H]2O[C@H](CO)[C@@H](O)[C@H](O)[C@H]2O[C@H]2C[C@](C)(N)[C@H](O)[C@H](C)O2)Oc2ccc(cc2Cl)[C@H]1O | – | methicillin-susceptible | – | 1 µg/mL
CC[C@H](C)[C@H](NC(=O)[C@H](CC(C)C)NC(=O)[C@H](CCCNC(=N)N)NC(=O)[C@@H](N)CCCNC(=N)N)C(=O)N[C@@H](CCCNC(=N)N)C(=O)N[C@H](C(=O)N[C@@H](CCCCN)C(=O)N[C@H](C(=O)NCC(=O)N1CCC[C@H]1C(=O)N[C@H](C(=O)N[C@H](C(=O)N[C@@H](Cc1ccc(O)cc1)C(=O)N[C@@H](CCCCN)C(=O)N[C@@H](Cc1ccc(O)cc1)C(=O)N[C@@H](Cc1ccccc1)C(=O)N[C@@H](CCCCN)C(=O)N[C@@H](CCCCN)C(=O)N[C@@H](CCC(N)=O)C(=O)N[C@@H](CC(C)C)C(=O)N[C@@H](CC(C)C)C(=O)N[C@@H](CCCCN)C(=O)N[C@@H](CCCCN)C(N)=O)[C@@H](C)CC)[C@@H](C)CC)[C@@H](C)O)[C@@H](C)O | broth microdilution | KCTC 1621, Mueller-Hinton broth | 24 h, 37 °C | 128 µM
COc1ccnc(NC(=S)N2CCN(c3ncc(C(F)(F)F)cc3Cl)CC2)c1 | – | MRSA USA500-2104, clinical | – | 1.6 µM
CC[C@H](C)[C@H](NC(=O)[C@H](Cc1c[nH]c2ccccc12)NC(=O)[C@@H](NC(=O)[C@@H](NC(=O)[C@@H](NC(=O)[C@H](CCCNC(=N)N)NC(=O)[C@@H](N)CCCNC(=N)N)[C@@H](C)CC)[C@@H](C)O)[C@@H](C)CC)C(=O)N[C@H](C(=O)N[C@H](C(=O)N[C@@H](CCCNC(=N)N)C(=O)N[C@@H](CCCNC(=N)N)C(N)=O)[C@@H](C)CC)[C@@H](C)O | broth microdilution | 29213, Mueller-Hinton broth | 24 h, 37 °C, lowest concentration, 95% inhibition, added: BSA | 128 µM
CC[C@H](C)[C@H](N)C(=O)N[C@@H](CCCNC(=N)N)C(=O)N[C@H](C(=O)N[C@@H](Cc1c[nH]c2ccccc12)C(=O)N[C@@H](CCCCN)C(=O)N[C@@H](CCCCN)C(=O)N[C@@H](Cc1ccccc1)C(=O)N[C@H](C(=O)N[C@@H](CCCNC(=N)N)C(=O)N[C@@H](CCCCN)C(=O)N[C@@H](CCSC)C(=O)N[C@@H](CCCCN)C(=O)N[C@@H](C)C(=O)N[C@H](C(=O)N[C@@H](Cc1ccc(O)cc1)C(=O)N[C@@H](Cc1c[nH]cn1)C(N)=O)[C@@H](C)CC)C(C)C)C(C)C | broth dilution | ATCC 25923, Mueller-Hinton broth | 24 h, 37 °C | 100 µM

For quick reference, copied from above:
Compound | assay | system | conditions | MIC
CC[C@H](C)[C@H](NC(=O)[C@H](CC(C)C)NC(=O)[C@@H](NC(=O)[C@@H](NC(=O)[C@@H](NC(=O)[C@H](CCCNC(=N)N)NC(=O)[C@H](CCCNC(=N)N)NC(=O)[C@H](CCCNC(=N)N)NC(=O)[C@@H](N)CCCNC(=N)N)C(C)C)[C@@H](C)CC)[C@@H](C)CC)C(=O)N[C@@H](CO)C(=O)N[C@@H](CC(C)C)C(=O)N[C@@H](CCCNC(=N)N)C(=O)N[C@@H](CCCNC(=N)N)C(=O)N[C@@H](CCCNC(=N)N)C(=O)N[C@@H](CCCNC(=N)N)C(=O)N[C@@H](Cc1ccccc1)C(=O)N[C@@H](CO)C(=O)N[C@@H](C)C(=O)N[C@@H](Cc1ccc(O)cc1)C(N)=O | broth microdilution | ATCC 29213 | highest value reported | 4 µM
